# Measurements collected from several papers.
# Each numbered part is a random draw from the data of one study; scales do not carry over between parts. Positions count from the first letter of the parent shown.

# Set 1
# Target: Histone acetyltransferase KAT6A, both winged helices, GST fusion (KAT6A, Homo sapiens, UniProt Q92794, residues 1-181)
# Method: protein binding microarray
# Form: double-stranded DNA, one strand shown
# Matrix: in vitro
# Concentration: not given
# Setting: 8-mer, flanks averaged, mean of 2 arrays, mostly near background
# Baseline: not given
# Direction: higher = stronger binding
# Construct (chain): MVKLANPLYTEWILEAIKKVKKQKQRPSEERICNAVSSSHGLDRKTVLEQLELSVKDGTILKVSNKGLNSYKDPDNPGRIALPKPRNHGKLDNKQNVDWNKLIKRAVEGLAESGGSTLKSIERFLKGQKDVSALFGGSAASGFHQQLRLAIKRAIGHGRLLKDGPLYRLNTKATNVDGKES
Oligonucleotide,E-score
ACGCACAG,0.16
CTCTGATA,-0.106
CGGAGGAA,0.0679
GCGTTTAA,0.15
ATGGACGA,0.0974
GCCGGGCA,0.212

# Set 2
# Target: CCND2, cyclin fold, Cln2 fusion (human)
# Method: yeast growth competition, sequencing
# Matrix: yeast
# Setting: weak parent motif
# Baseline: not given
# Direction: higher = stronger binding
# Starting sequence: DBF4B docking peptide (human); LGYLYLLLTQSLW; partner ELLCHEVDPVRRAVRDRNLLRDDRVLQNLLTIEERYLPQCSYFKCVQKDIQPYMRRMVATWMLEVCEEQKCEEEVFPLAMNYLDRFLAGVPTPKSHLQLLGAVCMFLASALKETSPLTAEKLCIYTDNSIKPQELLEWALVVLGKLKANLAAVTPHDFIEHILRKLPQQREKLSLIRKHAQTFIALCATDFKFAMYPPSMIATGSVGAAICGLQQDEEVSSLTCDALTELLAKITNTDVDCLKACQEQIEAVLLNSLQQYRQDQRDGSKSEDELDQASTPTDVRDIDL
Substitution,normalised enrichment score
L1A,-0.0155
W13A,-0.568
L4A,-0.155

# Set 3
# Target: ABI1, truncated, D143A, DHFR fusion (Arabidopsis thaliana)
# Method: DHFR PCA, deep sequencing
# Matrix: yeast
# Setting: methotrexate growth selection, single substitutions
# Added: (+)-ABA 0.032 µM
# Baseline: wild-type fitted maximum
# Direction: higher = stronger binding
# Starting sequence: PYL1, truncated, DHFR fusion (Arabidopsis thaliana); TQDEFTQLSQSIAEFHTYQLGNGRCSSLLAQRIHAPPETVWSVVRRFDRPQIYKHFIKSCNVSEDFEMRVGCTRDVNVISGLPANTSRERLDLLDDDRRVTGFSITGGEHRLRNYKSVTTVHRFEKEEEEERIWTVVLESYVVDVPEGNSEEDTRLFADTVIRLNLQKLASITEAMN; partner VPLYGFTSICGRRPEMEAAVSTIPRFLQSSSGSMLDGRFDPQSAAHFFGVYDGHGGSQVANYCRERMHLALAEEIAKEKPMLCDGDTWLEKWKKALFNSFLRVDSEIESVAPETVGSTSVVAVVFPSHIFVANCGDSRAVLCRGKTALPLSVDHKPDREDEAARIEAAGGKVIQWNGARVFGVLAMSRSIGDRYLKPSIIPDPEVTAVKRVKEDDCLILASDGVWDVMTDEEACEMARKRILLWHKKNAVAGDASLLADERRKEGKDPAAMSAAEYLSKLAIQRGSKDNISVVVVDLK
Substitution,relative binding score [%]
F124P,-0.327
K54I,-9.01
E130I,16.6
V137C,0.0131
A158Y,19.7
A170Y,-15.7

# Further values, each from its own experiment
Molecule,target,test,test system,conditions,scale,endpoint,result
"PhoQ, residues 284 288 289 292 302 303 SNSSNI","PhoP, residues 12 14 15 18 19 VQGLL (Escherichia coli, UniProt P23836)","Sort-seq, measured: YFP reporter",E. coli,"PhoQ-PhoP variant library, added: 10 µM Mg2+","baseline: high Mg2+ state, higher = stronger signaling",fold induction,3.22
